Results pooled from the literature.
Each line is one published result; not all experiments were run side by side.

| Structure (SMILES) | cell line | assay | setting | GI50 [nM] |
| --- | --- | --- | --- | --- |
| COC(C(=NOCC(=O)NCc1ccccc1)C(O)C(C)O)C1Cc2cc3cc(OC4CC(OC5CC(O)C(O)C(C)O5)C(O)C(C)O4)c(C)c(O)c3c(O)c2C(=O)C1OC1CC(OC2CC(OC3CC(C)(O)C(O)C(C)O3)C(O)C(C)O2)C(O)C(C)O1 (stereo not drawn) | TC-32 | cell growth | 72 h | 115 |
| Cc1ccc(Nc2ncc3c(n2)N(Cc2ccccc2)C(=O)N(c2cc(NC(=O)c4cccc(C(F)(F)F)c4)ccc2C)C3)cn1 | Huh-7 | cell growth or viability, ATP luminescence | 72 h | 118 |
| COC(C(=NOCCCCc1c[nH]c2ccccc12)C(O)C(C)O)C1Cc2cc3cc(OC4CC(OC5CC(O)C(O)C(C)O5)C(O)C(C)O4)c(C)c(O)c3c(O)c2C(=O)C1OC1CC(OC2CC(OC3CC(C)(O)C(O)C(C)O3)C(O)C(C)O2)C(O)C(C)O1 (stereo not drawn) | TC-32 | cell growth | 72 h | 60 |
| CC(Cc1ccc(Cl)cc1)=C(c1ccc(Cl)cc1)c1ccc(OCCN(C)C)cc1 | RXF 393 | cell growth or viability |  | 3450 |
| Cc1ccc(Nc2ncc3c(n2)N(C)C(=O)N(c2cc(NC(=O)c4ccc(CN5CCN(C)CC5)c(C(F)(F)F)c4)ccc2C)C3)cn1 | Huh-7 | cell growth or viability, ATP luminescence | 72 h | 173 |
| CC(=C(c1ccc(O)cc1)c1ccc(Cl)cc1)c1ccc(Cl)cc1 | LOX IMVI | cell growth or viability, SRB |  | 420 |
| Cc1ccc(Nc2ncc3c(n2)N(C)C(=O)N(c2cc(NC(=O)c4ccccc4)ccc2C)C3)cn1 | Huh-7 | cell growth or viability, ATP luminescence | 72 h | 1390 |
| C=CCON=C(C(O)C(C)O)C(OC)C1Cc2cc3cc(OC4CC(OC5CC(O)C(O)C(C)O5)C(O)C(C)O4)c(C)c(O)c3c(O)c2C(=O)C1OC1CC(OC2CC(OC3CC(C)(O)C(O)C(C)O3)C(O)C(C)O2)C(O)C(C)O1 (stereo not drawn) | TC-32 | cell growth | 72 h | 116 |
| Nc1nc2cc(CC[C@H]3C[C@@H](n4ccc5c(N)ncnc54)[C@H](O)[C@@H]3O)ccc2cc1Br | COLO 699 | cell growth or viability, MTT | 6 days | > 1000 |
| COC(C(=NOCCCc1c[nH]c2ccccc12)C(O)C(C)O)C1Cc2cc3cc(OC4CC(OC5CC(O)C(O)C(C)O5)C(O)C(C)O4)c(C)c(O)c3c(O)c2C(=O)C1OC1CC(OC2CC(OC3CC(C)(O)C(O)C(C)O3)C(O)C(C)O2)C(O)C(C)O1 (stereo not drawn) | TC-32 | cell growth | 72 h | 59 |
| COC(=O)c1cc(OC)nc2c(-c3ccc(N4CCCCC4)cc3)csc12 | best of six cancer lines | SRB |  | < 10000 |
| COC(C(=NOCC(=O)NCCc1ccccc1)C(O)C(C)O)C1Cc2cc3cc(OC4CC(OC5CC(O)C(O)C(C)O5)C(O)C(C)O4)c(C)c(O)c3c(O)c2C(=O)C1OC1CC(OC2CC(OC3CC(C)(O)C(O)C(C)O3)C(O)C(C)O2)C(O)C(C)O1 (stereo not drawn) | TC-32 | cell growth | 72 h | 243 |
| COC1CN([C@H]2CC[C@H]([C@@]3(C)Oc4c(Cl)cc(C(=O)NCc5c(SC)cc(C)[nH]c5=O)c(C)c4O3)CC2)C1 | RT-4 | cell growth or viability, ATP luminescence | 12 days | > 1000 |
| CC/C=C\C/C=C\C/C=C\C/C=C\C/C=C\C/C=C\CCC(=O)Nc1ccn(C2OC(CO)C(O)C2(F)F)c(=O)n1 (stereo not drawn) | EKVX | cell growth or viability, SRB |  | 852 |
| Cc1ccc(Nc2ncc3c(n2)N(c2ccccc2)C(=O)N(c2cc(NC(=O)c4cccc(C(F)(F)F)c4)ccc2C)C3)cn1 | Huh-7 | cell growth or viability, ATP luminescence | 72 h | 162 |

A few entries again:
| Structure (SMILES) | cell line | assay | setting | GI50 [nM] |
| --- | --- | --- | --- | --- |
| Cc1ccc(Nc2ncc3c(n2)N(Cc2ccccc2)C(=O)N(c2cc(NC(=O)c4cccc(C(F)(F)F)c4)ccc2C)C3)cn1 | Huh-7 | cell growth or viability, ATP luminescence | 72 h | 118 |
